Published values pooled from the literature.
Each numbered part is a random draw from the data of one study; scales do not carry over between parts. Changes are numbered by the printed parent chain.

Sample 1
Target: Ras GTPase-activating protein-binding protein 1, RRM domain (G3BP1, Homo sapiens, UniProt Q13283)
UniProt Q13283, sequence (whole entry, looked up): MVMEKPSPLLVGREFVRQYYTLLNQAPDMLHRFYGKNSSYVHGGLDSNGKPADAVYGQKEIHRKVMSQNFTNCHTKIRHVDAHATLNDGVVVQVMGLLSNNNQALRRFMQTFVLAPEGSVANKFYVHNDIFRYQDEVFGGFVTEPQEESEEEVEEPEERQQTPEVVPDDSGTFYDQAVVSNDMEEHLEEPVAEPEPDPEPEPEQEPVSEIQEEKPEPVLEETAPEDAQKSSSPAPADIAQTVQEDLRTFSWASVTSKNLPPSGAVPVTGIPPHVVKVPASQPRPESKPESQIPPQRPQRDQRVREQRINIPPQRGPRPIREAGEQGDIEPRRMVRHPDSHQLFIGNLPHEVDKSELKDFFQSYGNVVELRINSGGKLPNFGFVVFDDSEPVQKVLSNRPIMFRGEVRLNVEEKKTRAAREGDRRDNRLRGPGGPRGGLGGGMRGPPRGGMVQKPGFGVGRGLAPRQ
Technique: RNA Bind-n-Seq
Molecule type: RNA
Medium: in vitro
Concentration: 1 µM
Notes: whole 134-nt RNA, ends assumed
Together with: 150 mM KCl
Reference: input library
Reading: higher = stronger binding
Shared flanks, not repeated: GGGAGUUCUACAGUCCGACGAUC … UGGAAUUCUCGGGUGUCAAGG
The log2 enrichment of `AAGUCCUGUGCUACACAUCGUAUGUACCGAAUCGGUGGAAAAAAAGGAAAAAAAGGAAAGUAUUAUGUUACGCCGUUCGGAUCUGCACUU` is reported as 0.0534.
With `CCUCAAGUCCUGUGCUACACAUCGUAUGUACCGAAUCGGGUGGUGGGUGGGGAAAGUAUUAUGUUACGCCGUUCGGAUCUGCACUUCCAG` the log2 enrichment was 0.259.
The log2 enrichment of `CAAGUCCUGUGCUACACAUCGUAUGUACCGAAUCGGAAAGGAAAGGGGAAAGGGGAAAGUAUUAUGUUACGCCGUUCGGAUCUGCACUUC` is reported as -0.0796.
The log2 enrichment of `UGUGCUACACAUCGUAUGUACCGAAUCGGGUUUUUUUGGGGUUUUUUUGGGUUUUUUUGGGGAAAGUAUUAUGUUACGCCGUUCGGAUCU` is reported as -0.0592.
`GUCCUGUGCUACACAUCGUAUGUACCGAAUCAAACCCCCCCAAAUUUUUAAACCCAAAAAAGUAUUAUGUUACGCCGUUCGGAUCUGCAC` gave a log2 enrichment of -0.407.

Sample 2
Target: RNA binding protein fox-1 homolog 2, RRM domain, GST-SBP tag (RBFOX2, Homo sapiens, UniProt O43251-10, residues 100-194)
Technique: RNA Bind-n-Seq
Molecule type: RNA
Medium: in vitro
Concentration: 365 nM
Notes: natural RNA segment, single round, ends assumed
Reference: no-protein control
Reading: higher = stronger binding
Shared flanks, not repeated: GGGAGUUCUACAGUCCGACGAUC … UGGAAUUCUCGGGUGCCAA
Target sequence (chain): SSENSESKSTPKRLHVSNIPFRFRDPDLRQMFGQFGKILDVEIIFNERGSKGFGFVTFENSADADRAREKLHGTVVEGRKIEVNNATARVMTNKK
Under “RBNS enrichment (R)”, `ACUAGGCUGGGCCUGGCCCCAGAAGCCGGGCAGUUCCUGCCUCCUUCUCCACUUUUAUAAAGCCAAGCCUUUCCCCAGAAUAGUAUUAACUCCUGGUGCUUUGUACUACU` is recorded as 0.285.
For `AAUGGAGCAGUGGCAAUCUCCCUGUUCCCCAACCUAACUCUUGGAACUUGGCCCUCUCCUUUCUUCCUGUUAAGUCUGAGAGGGAAGAGCUAGGCUAUGAAGGGAAGAUG`, “RBNS enrichment (R)” read 0.301.
For `CAUUUUCCAAAGUUUCAUUGCAUUCUCCCUUGGGGAGGCUGUGAGAGAGGGCUUGUAUCCCUCUUGUGCUAAGCAGACUCUACUCCUAACUGACUUCAAUAUUUCAGCAG`, “RBNS enrichment (R)” read 0.273.
Under “RBNS enrichment (R)”, `UCAGAAGUCUGUAAUGAAUGUAAUUAUGUUUAGGCCAGUAAAUGAUGUAGAUUCGUCCUUUAUUGGUAGUCGCAGUUGAUAUUUCAAGAGAGUGAGAUGCCAUGCUGACA` is recorded as 0.293.
`UAAAUUGUAUACAUUUUGUUAUAGAAUACUUUUUCCAGUUGAGUAAAUUAUGAAAGGAAGUUAACAUGAAAAGUGUAAGCAGUGGCUUUUUUAAAAUUGAGGAUUAACCC` — result for “RBNS enrichment (R)”: 0.542.
Under “RBNS enrichment (R)”, `UCCUUGAACCCAGCCCCGUGAACAAUCUAUCAUAGGACUUUCAGGUAUUUUUACUUUUAUUUUUUGAUCUGAACUGGGAGCUAUAUUUAGCCCUCUGCCUCUCCAAAGCA` is recorded as 0.497.
Under “RBNS enrichment (R)”, `GAGGUGACUGACCACCUAGGGCCCCUGAGAGGCAAAGGGAACCUGCAAAGGGCCUGUCCCCGGGCAGAAGAUGAAGCCCCUACCCGUGGACUGUGUGGUUCCAUCUCUGG` is recorded as 0.661.
`UACUUCAUUUGGUGCUGGUCUAUUUUGAUUUUGGGGGGUAAUCAGCAUUAUUCUUCAGAAGGGGACCUGUUUUCUUCAAGGGAAGAAACACUCUUAUUCCCAAACUACAG`: “RBNS enrichment (R)” 0.231.

Sample 3
Target: Prothrombin, mature alpha-thrombin (F2, Homo sapiens, UniProt P00734)
Technique: aptamer microarray, sandwich
Molecule type: DNA with 2'F-ANA
Medium: in vitro
Concentration: 200 nM
Notes: whole 15-mer aptamer, many near background
Together with: Cy3 exosite-II aptamer, 400 nM
Reading: higher = stronger binding
Oligonucleotide: GGTTGGTGTGGTTGG
Under “mean fluorescence intensity”, `2'F-ANA at 1 2 5 6 7 10 12 14` is recorded as 57 a.u.
For `2'F-ANA at 3 4 6 10 11`, “mean fluorescence intensity” read 240 a.u.
Under “mean fluorescence intensity”, `2'F-ANA at 1 3 4 8 9 12 14` is recorded as 95.4 a.u.
`2'F-ANA at 1 3 5 6 12`: “mean fluorescence intensity” 106 a.u.
Under “mean fluorescence intensity”, `2'F-ANA at 1 2 3 4 7 8 9 11 12 13 14 15` is recorded as 92.4 a.u.
Under “mean fluorescence intensity”, `2'F-ANA at 3 6 9 10 13 14` is recorded as 400 a.u.
`2'F-ANA at 2 4 11 14`: “mean fluorescence intensity” 101 a.u.
For `2'F-ANA at 2 3 4 6 8 13 14`, “mean fluorescence intensity” read 261 a.u.
For `2'F-ANA at 4 5 6 7 10 11 12 14 15`, “mean fluorescence intensity” read 46.2 a.u.
`2'F-ANA at 2 4 13 14`: “mean fluorescence intensity” 106 a.u.

Sample 4
Target: ABI1, truncated, D143A, DHFR fusion (Arabidopsis thaliana)
Technique: DHFR PCA, deep sequencing
Medium: yeast
Notes: methotrexate growth selection, single substitutions
Together with: (+)-ABA 58 µM
Reference: wild-type fitted maximum
Reading: higher = stronger binding
Starting sequence: PYL1, truncated, DHFR fusion (Arabidopsis thaliana); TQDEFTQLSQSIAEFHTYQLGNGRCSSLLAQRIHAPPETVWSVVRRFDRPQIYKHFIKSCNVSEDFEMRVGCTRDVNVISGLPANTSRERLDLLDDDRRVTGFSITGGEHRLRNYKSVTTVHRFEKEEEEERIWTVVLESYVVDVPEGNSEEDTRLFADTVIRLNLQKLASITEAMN
`D48R`: “relative binding score” 17.9%.
For `N177V`, “relative binding score” read 78.6%.
`R98A` — result for “relative binding score”: 77.5%.
Under “relative binding score”, `D65N` is recorded as 86.6%.
`V137S`: “relative binding score” 0.697%.
`K58Q` — result for “relative binding score”: 78.6%.
`R32Y`: “relative binding score” 85.7%.
`E67Q` — result for “relative binding score”: 87.9%.
For `G23M`, “relative binding score” read 73.3%.
`D159I` — result for “relative binding score”: -6.53%.
`D153F` — result for “relative binding score”: -4.06%.
